Assay results pooled from the literature.
Lines come from different studies, so protocols differ. Several values in a cell are separate wells, animals, samples, runs or records. Numbers after ± are the reported error. In brackets after ≈: the same amount, converted by molar mass.
rep main protease: Replicase polyprotein 1ab, main protease (rep, Severe acute respiratory syndrome coronavirus 2, UniProt P0DTD1)
Spike glycoprotein: Spike glycoprotein (Severe acute respiratory syndrome coronavirus 2, UniProt P0DTC2)

CCCC(=O)OCSc1ccccc1C(=O)NCCC(N)=O
EC50 (HIV-1; viral replication; human PBMC, subtype D 92UG001, dual-tropic clinical isolate): 3140 ± 2180 nM

N#C[C@]1(CO)O[C@@H](n2cnc3c(N)nc(N)nc32)C[C@@H]1O
IC50 (HIV-1 T215F; MTT; MT4): 1.2 ± 0.9 nM

Cc1cn([C@H]2C[C@H](N=[N+]=[N-])[C@@H](CO)O2)c(=O)[nH]c1=O
EC50 (HIV-1; viral replication; human monocytes/macrophages, subtype B 91US005, CCR5-tropic): < 0.3 nM

Cc1cn([C@H]2C[C@H](N=[N+]=[N-])[C@@H](CO)O2)c(=O)[nH]c1=O
IC50 (HIV-1 M184V; MTT; MT4): 16.8 ± 12.8 nM

Cn1cnc(Cn2c(=O)[nH]/c(=N\c3cc4cn(C)nc4cc3Cl)n(Cc3cc(F)c(F)cc3F)c2=O)n1
patients with adverse event (human, all renal function groups; oral, 375 mg, vessel puncture site haemorrhage TEAE, Severe severity): 0%

CC[C@H](C)[C@H](NC(=O)[C@H](CC(C)C)NC(=O)[C@H](Cc1c[nH]c2ccccc12)NC(=O)[C@H](CCC(N)=O)NC(=O)[C@@H](NC(=O)[C@H](Cc1ccccc1)NC(=O)[C@H](C)NC(=O)[C@H](CCCCNC(=O)COCCOCCNC(=O)COCCOCCNC(=O)CC[C@H](NC(=O)CCCCCCCCCCCCCCCCCCC(=O)O)C(=O)O)NC(=O)[C@H](CCC(N)=O)NC(=O)[C@H](C)NC(=O)[C@@H](NC(=O)[C@H](CCCCN)NC(=O)[C@H](CC(=O)O)NC(=O)[C@H](CC(C)C)NC(=O)C(C)(C)NC(=O)[C@@H](NC(=O)[C@H](CO)NC(=O)[C@H](Cc1ccc(O)cc1)NC(=O)[C@H](CC(=O)O)NC(=O)[C@H](CO)NC(=O)[C@@H](NC(=O)[C@H](Cc1ccccc1)NC(=O)[C@@H](NC(=O)CNC(=O)[C@H](CCC(=O)O)NC(=O)C(C)(C)NC(=O)[C@@H](N)Cc1ccc(O)cc1)[C@@H](C)O)[C@@H](C)O)[C@@H](C)CC)[C@@H](C)CC)C(C)C)C(=O)N[C@@H](C)C(=O)NCC(=O)NCC(=O)N1CCC[C@H]1C(=O)N[C@@H](CO)C(=O)N[C@@H](CO)C(=O)NCC(=O)N[C@@H](C)C(=O)N1CCC[C@H]1C(=O)N1CCC[C@H]1C(=O)N1CCC[C@H]1C(=O)N[C@@H](CO)C(N)=O
subjects with adverse event (measured: treatment-emergent vessel puncture site bruise; healthy subjects; 0.5 mg, multiple ascending dose): 0%

COC(CN1CCn2cc(C(=O)NCc3ccc(F)cc3F)c(=O)c(O)c2C1=O)OC
EC50 (human immunodeficiency virus 1; single-round vector infection; integrase S230N): 8.6 ± 1.2 nM

C#C[C@]1(CO)O[C@@H](n2cnc3c(=O)[nH]c(N)nc32)C[C@@H]1O
IC50 (HIV-1 T215F; MTT; MT4): 2 ± 0.6 nM

CNC(=O)[C@@H](NC(=O)[C@H](CC(C)C)[C@H](O)C(=O)NO)C(C)(C)C
remaining activity (Daboia russelii venom proteases (SVMP); protease activity, inhibitor; MP population; 100 µM, with: azocasein substrate; reference: venom alone): 0%

Cc1cc(/C=C/C#N)cc(C)c1-n1cnc2cnc(Nc3ccc(/C=C/C#N)cc3)nc21
EC50 (HIV-1; viral replication, single-round infection; RT mutant K101E/M184I): > 7 nM

C#C[C@]1(CO)O[C@@H](n2cnc3c(O)ncnc32)C[C@@H]1O
IC50 (HIV-1 K65R; MTT; MT4): 37.1 ± 3.2 nM

O=C(Nc1ccccc1O)c1ccccc1Sc1ccc([N+](=O)[O-])cc1
IC50 (HIV-1; viral replication, measured: RT activity; H9 expressing A3G, LAI, X4-tropic wild type; day 7): 25000 nM

caspofungin
radial growth (Aspergillus fumigatus; solid medium; 0.125 µg/mL, 4 days, unit not given; reference: untreated control): 0.222 and 0.276 and 0.235

N#CC(C#N)=NNc1cccc(Cl)c1
tetracycline MIC (Escherichia coli; checkerboard; tetracycline-resistant (pBR322); 21 µM, with: tetracycline): 450 µM

NC(=O)CCNC(=O)c1ccccc1S
EC50 (HIV-1; viral replication; human PBMC, subtype D 92UG001, dual-tropic clinical isolate): 5390 ± 740 nM

CC[C@]1(CO)O[C@@H](n2cnc3c(=O)[nH]c(N)nc32)C[C@@H]1O
IC50 (HIV-1 K65R; MTT; MT4): 14 nM

COc1ccccc1NC(=O)c1ccccc1Oc1ccc(N)cc1
IC50 (HIV-1; viral replication, measured: RT activity; H9 expressing A3G, LAI, X4-tropic wild type; day 7): 43200 nM

Nc1ncnc2c([C@@H]3N[C@H](CO)[C@@H](O)[C@H]3O)c[nH]c12
inhibition (Marburg virus; viral RNA in cell lysate; HeLa, Musoke; 25 µM, 12 h): 84.9%

COc1ccccc1NC(=O)c1ccccc1OCc1ccc2c(c1)OCO2
IC50 (HIV-1; viral replication, measured: RT activity; H9 expressing A3G, LAI, X4-tropic wild type; day 7): 12900 nM

Nc1nc(NC2CC2)c2ncn([C@H]3C=C[C@@H](CO)C3)c2n1
IC50 (HIV-1 T215F; MTT; MT4): 1670 ± 72.4 nM

O=C(Nc1ccccc1CO)c1ccccc1Oc1ccc([N+](=O)[O-])cc1
IC50 (HIV-1; viral replication, measured: RT activity; H9 expressing A3G, LAI, X4-tropic wild type; day 7): 9200 nM

CNc1nc(N)ncc1-c1cn([C@@H]2O[C@H](CO)[C@@H](O)[C@@]2(C)F)cn1
antiviral activity (herpes simplex virus 1; concentration not given): inactive

CC(C)(F)C[C@H](N[C@@H](c1ccc(-c2ccc(S(C)(=O)=O)cc2)cc1)C(F)(F)F)C(=O)NC1(C#N)CC1
inhibition (rep main protease; reporter gene (Gaussia luciferase), inhibitor; 20 µM): -0.175%

CC[C@H](C)[C@H](N)C(=O)N[C@@H](Cc1c[nH]c2ccccc12)C(=O)N[C@@H](CC(C)C)C(=O)N[C@H](C(=O)N[C@@H](C)C(=O)N[C@@H](CC(C)C)C(=O)N[C@@H](CCCCN)C(=O)N[C@@H](Cc1ccccc1)C(=O)N[C@@H](CC(C)C)C(=O)NCC(=O)N[C@@H](CCCCN)C(=O)N[C@@H](Cc1c[nH]cn1)C(=O)N[C@@H](C)C(=O)N[C@@H](C)C(=O)N[C@@H](CCCCN)C(=O)N[C@@H](Cc1c[nH]cn1)C(=O)N[C@@H](CC(C)C)C(=O)N[C@@H](C)C(=O)N[C@@H](CCCCN)C(=O)N[C@@H](CCC(N)=O)C(=O)N[C@@H](CCC(N)=O)C(=O)N[C@@H](CC(C)C)C(=O)N[C@@H](CO)C(=O)N[C@@H](CCCCN)C(=O)N[C@@H](CC(C)C)C(=O)O)[C@@H](C)O
MIC (Escherichia coli; broth microdilution; K12; 37 °C): 25 µM (≈ 71.1 µg/mL)

O=C1Nc2ccc(Cl)cc2[C@@](C#CC2CC2)(C(F)(F)F)O1
EC50 (HIV-1; viral replication, single-round infection; RT mutant E138K/M184V): 2.1 ± 0.1 nM

O=C(Nc1cccc(CO)c1)c1ccccc1Sc1ccc([N+](=O)[O-])cc1
IC50 (HIV-1; viral replication, measured: RT activity; H9 expressing A3G, LAI, X4-tropic wild type; day 7): 50000 nM

O=c1cc(CO)occ1O
inhibition (rep main protease; reporter gene (Gaussia luciferase), inhibitor; 20 µM): 2.47%

Ro 31-8220
M protein level (porcine epidemic diarrhea virus; viral infection; concentration not given): decreased

CNc1nc(N)nc2c1ncn2[C@H]1C[C@H](O)[C@](CO)(CF)O1
IC50 (HIV-1 K65R; MTT; MT4): 133 ± 7.2 nM

CNc1nc(N)ncc1-c1cn([C@@H]2O[C@H](CO[P@@](=O)(N[C@@H](C)C(=O)OC(C)C)Oc3ccccc3)[C@@H](O)[C@@]2(C)F)cn1
antiviral activity (Epstein-Barr virus; concentration not given): inactive

Cc1cc(/C=C/C#N)cc(C)c1Nc1ccnc(Nc2ccc(C#N)cc2)n1
EC50 (HIV-1; viral replication, single-round infection; RT mutant D67E): 0.8 ± 0.3 nM

COc1ccccc1C(=O)Nc1ccccc1Sc1ccc(N)cc1
IC50 (HIV-1; viral replication, measured: RT activity; H9 expressing A3G, LAI, X4-tropic wild type; day 7): 37800 nM

CC[C@H](C)[C@H](NC(=O)[C@H](CCCCN)NC(=O)[C@H](CCCNC(=N)N)NC(=O)[C@H](CCCNC(=N)N)NC(=O)[C@H](CC(C)C)NC(=O)[C@H](CCCCN)NC(=O)[C@H](CCCCN)NC(=O)[C@H](Cc1ccccc1)NC(=O)[C@H](CC(C)C)NC(=O)CNC(=O)[C@H](CCCNC(=N)N)NC(=O)[C@@H](N)CCCNC(=N)N)C(=O)N[C@@H](CCCCN)C(=O)N[C@@H](CCCCN)C(=O)NCC(=O)N[C@@H](Cc1ccccc1)C(=O)N[C@@H](CCCCN)C(=O)N[C@@H](CCCCN)C(=O)N[C@H](C(=O)N[C@@H](Cc1ccccc1)C(=O)N[C@@H](CCCCN)C(=O)N[C@@H](CCCNC(=N)N)C(=O)N[C@@H](CC(C)C)C(=O)N1CCC[C@H]1C(=O)N1CCC[C@H]1C(=O)N[C@H](C(=O)NCC(=O)N[C@H](C(=O)NCC(=O)N[C@H](C(=O)N[C@@H](CO)C(=O)O)C(C)C)C(C)C)C(C)C)[C@@H](C)CC
MIC (Clostridium perfringens; ATCC 13124): 5.15 µM (≈ 18.7 µg/mL)

Cc1cc(/C=C/C#N)cc(C)c1-n1cnc2cnc(Nc3ccc4cc(C#N)ccc4c3)nc21
EC50 (HIV-1; viral replication, single-round infection; RT mutant G190A): ≤ 2.1 nM

O=C(Cc1ccccc1F)Nc1ccccc1Sc1ccc([N+](=O)[O-])cc1
IC50 (HIV-1; viral replication, measured: RT activity; H9 expressing A3G, LAI, X4-tropic wild type; day 7): 29700 nM

C#C[C@]1(CO)O[C@@H](n2ccc(N)nc2=O)C[C@@H]1O
IC50 (HIV-1 M184V; MTT; MT4): 15.5 ± 1.7 nM

C[C@@H]1O[C@@H](O[C@H]2[C@H](O[C@H]3CC[C@@]4(C)[C@@H](CC[C@]5(C)[C@@H]4CC=C4[C@@H]6CC(C)(C)CC[C@]6(C(=O)O[C@@H]6O[C@H](CO[C@@H]7O[C@H](CO)[C@@H](O[C@@H]8O[C@@H](C)[C@H](O)[C@@H](O)[C@H]8O)[C@H](O)[C@H]7O)[C@@H](O)[C@H](O)[C@H]6O)CC[C@]45C)[C@]3(C)CO)OC[C@H](O)[C@@H]2O)[C@H](O)[C@H](O)[C@H]1O
Kd (Spike glycoprotein; binding, biolayer interferometry): 54500 nM

Cn1c(Cn2ccc(C(F)(F)F)c(Oc3cc(Cl)cc(C#N)c3)c2=O)n[nH]c1=O
EC50 (HIV-1; viral replication, single-round infection; RT mutant E138K/M184I): 1.4 ± 0.6 nM

OCC1(O)COc2cc(O)ccc2-c2cc(O)c(O)cc2C1 (centres unmarked)
Kd (Spike glycoprotein; binding, biolayer interferometry): 61100 nM

COc1ccccc1C(=O)Nc1ccccc1Oc1ccc(OC(C)=O)cc1
IC50 (HIV-1; viral replication, measured: RT activity; H9 expressing A3G, LAI, X4-tropic wild type; day 7): 43200 nM

Cc1cc(/C=C/C#N)cc(C)c1Nc1nc(Nc2ccc(/C=C/C#N)cc2)ncc1N
EC50 (HIV-1; viral replication, single-round infection; RT mutant K101E/M184V): 1.9 ± 0.4 nM

Repeated from above:
CC[C@H](C)[C@H](N)C(=O)N[C@@H](Cc1c[nH]c2ccccc12)C(=O)N[C@@H](CC(C)C)C(=O)N[C@H](C(=O)N[C@@H](C)C(=O)N[C@@H](CC(C)C)C(=O)N[C@@H](CCCCN)C(=O)N[C@@H](Cc1ccccc1)C(=O)N[C@@H](CC(C)C)C(=O)NCC(=O)N[C@@H](CCCCN)C(=O)N[C@@H](Cc1c[nH]cn1)C(=O)N[C@@H](C)C(=O)N[C@@H](C)C(=O)N[C@@H](CCCCN)C(=O)N[C@@H](Cc1c[nH]cn1)C(=O)N[C@@H](CC(C)C)C(=O)N[C@@H](C)C(=O)N[C@@H](CCCCN)C(=O)N[C@@H](CCC(N)=O)C(=O)N[C@@H](CCC(N)=O)C(=O)N[C@@H](CC(C)C)C(=O)N[C@@H](CO)C(=O)N[C@@H](CCCCN)C(=O)N[C@@H](CC(C)C)C(=O)O)[C@@H](C)O
MIC (Escherichia coli; broth microdilution; K12; 37 °C): 25 µM (≈ 71.1 µg/mL)

O=C1Nc2ccc(Cl)cc2[C@@](C#CC2CC2)(C(F)(F)F)O1
EC50 (HIV-1; viral replication, single-round infection; RT mutant E138K/M184V): 2.1 ± 0.1 nM

O=C(Nc1cccc(CO)c1)c1ccccc1Sc1ccc([N+](=O)[O-])cc1
IC50 (HIV-1; viral replication, measured: RT activity; H9 expressing A3G, LAI, X4-tropic wild type; day 7): 50000 nM
